Results pooled from the literature.
Parts stem from different laboratories: compare values within a part only. Positions count from the first letter of the parent shown.

Study 1 — technique: protein-binding microarray; form: double-stranded DNA, one strand shown; matrix: in vitro; concentration: 2200 nM top; setting: 60-bp whole probe; added: salmon DNA 0.4 mg/ml; reference: random background probes; reading: higher = stronger binding; all sequences stand within: GCCTAGCAC … GTCTTGATTCGCTTGACGCTGCTG
Target: Interferon regulatory factor 7, full length, phosphomimetic (IRF7, Homo sapiens, UniProt Q92985, residues 1-503, S471D/S472D/S475D/S476D/S477D/S483D/S484D/S487D)
UniProt Q92985, sequence (whole entry, unmodified, looked up): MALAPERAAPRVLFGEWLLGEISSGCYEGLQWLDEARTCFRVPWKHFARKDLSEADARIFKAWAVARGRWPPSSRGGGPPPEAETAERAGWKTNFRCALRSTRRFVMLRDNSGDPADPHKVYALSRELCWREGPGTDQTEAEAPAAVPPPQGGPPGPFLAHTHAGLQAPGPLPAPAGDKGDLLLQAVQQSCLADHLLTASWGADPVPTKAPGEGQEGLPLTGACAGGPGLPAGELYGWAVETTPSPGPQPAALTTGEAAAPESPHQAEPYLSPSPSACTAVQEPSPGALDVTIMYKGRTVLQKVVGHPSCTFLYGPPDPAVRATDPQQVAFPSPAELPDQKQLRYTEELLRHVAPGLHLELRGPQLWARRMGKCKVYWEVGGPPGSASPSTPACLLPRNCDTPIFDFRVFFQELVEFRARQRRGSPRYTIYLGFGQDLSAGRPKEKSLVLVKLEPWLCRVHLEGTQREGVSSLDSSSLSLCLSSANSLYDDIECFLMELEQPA
`TTAGGACGGGGGTATCGGTTAGTGCTA` — result for “fitted relative affinity”: 0.872 z-score.
For `TTAGGACTAGGACTGGGTTAGTGCTAG`, “fitted relative affinity” read -0.571 z-score.
Under “fitted relative affinity”, `TTAGGTTTCCTTCTACTTTAGTGCTAG` is recorded as 2.01 z-score.
Under “fitted relative affinity”, `GACGGGCTGGGACTGGGGACGTGCTAG` is recorded as -1.22 z-score.
Under “fitted relative affinity”, `GACGGTATAGACTTTCGGGACGTGCTA` is recorded as 2.26 z-score.
`GTCATTCTCAACCCTGGTGCTGTGCTA` — result for “fitted relative affinity”: 0.821 z-score.
`GACGGTCTCCTACTCCTGACGTGCTAG`: “fitted relative affinity” 1.12 z-score.
Under “fitted relative affinity”, `CTGAATGTCCTCCTCTCTCTGTGCTAG` is recorded as 1.24 z-score.
For `TCCCTTATAAATAGCACAGGGTGCTAG`, “fitted relative affinity” read 0.304 z-score.
`TTAGGGCTGGACTATCGGTTAGTGCTA`: “fitted relative affinity” -0.972 z-score.
`GACGGACTGTGGTTTCGGGACGTGCTA`: “fitted relative affinity” 2.02 z-score.
Under “fitted relative affinity”, `TTAGGTATCGCTATCGGTTAGTGCTAG` is recorded as 1.04 z-score.
`GACGGAGTGGACTTTCGGGACGTGCTA` — result for “fitted relative affinity”: 2.26 z-score.

Study 2 — target: CCNE2, cyclin fold, Cln2 fusion (human); technique: yeast growth competition, sequencing; matrix: yeast; setting: strong parent motif; reference: not given; reading: higher = stronger binding
Parent: CDC25A docking peptide (human); PPHRRRLLFACSP
`PPHRRGLLFACSP [R6G]` — result for “normalised enrichment score”: 0.577.
`PPHRRRLAFACSP [L8A]`: “normalised enrichment score” 1.92.
`PPHRRRILFACSP [L7I]` — result for “normalised enrichment score”: 1.83.
`PPHRRRLLFACSD [P13D]` — result for “normalised enrichment score”: 3.06.
`PPHWRRLLFACSP [R4W]`: “normalised enrichment score” 1.16.
`PPMRRRLLFACSP [H3M]`: “normalised enrichment score” 0.941.
`PPHRTRLLFACSP [R5T]`: “normalised enrichment score” 0.822.
For `PPHRRRLLVACSP [F9V]`, “normalised enrichment score” read 0.823.
For `PPHRRKLLFACSP [R6K]`, “normalised enrichment score” read 1.87.
`PPHRRRLLFAKSP [C11K]`: “normalised enrichment score” 1.28.

Study 3 — technique: RNA Bind-n-Seq; form: RNA; matrix: in vitro; concentration: 200 nM; setting: whole 134-nt RNA, ends assumed; added: 150 mM LiCl; reference: input library; reading: higher = stronger binding; library: 7-deaza-guanosine replaces G
Target: Fragile X messenger ribonucleoprotein 1, C-terminal low-complexity region (Fmr1, Mus musculus, UniProt P35922)
The log2 enrichment of `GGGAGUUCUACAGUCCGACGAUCAAGUCCUGUGCUACACAUCGUAUGUACCGAAUCGGUUUUUUUGGAGGAAAAAAAGGAAAGUAUUAUGUUACGCCGUUCGGAUCUGCACUUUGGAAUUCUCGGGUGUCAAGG` is reported as -2.31.
For `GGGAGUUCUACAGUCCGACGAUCGUCCUGUGCUACACAUCGUAUGUACCGAAUCGGGCCCCCGGGGCCCCCGGCCCCCGGGAAAGUAUUAUGUUACGCCGUUCGGAUCUGCACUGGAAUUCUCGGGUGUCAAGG`, the log2 enrichment was -2.79.
`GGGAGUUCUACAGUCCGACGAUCCACAGACAACACGCACCCACACAGACACAGAGGGAAGGGGUUGGGAUGUGGACAGGGUGCACAGCAGGGCGGGGUAGGACCCCAGCCCCUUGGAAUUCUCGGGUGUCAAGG` has a log2 enrichment of -1.83.
`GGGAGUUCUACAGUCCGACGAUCUCAAGUCCUGUGCUACACAUCGUAUGUACCGAAUCGGGGUUGGGGUUGGGGUUGGAAAGUAUUAUGUUACGCCGUUCGGAUCUGCACUUCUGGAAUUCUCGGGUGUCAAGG` has a log2 enrichment of -1.27.
`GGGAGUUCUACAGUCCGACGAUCCUCAAGUCCUGUGCUACACAUCGUAUGUACCGAAUCGGUUUGGUUUUUGGAGGAAAGUAUUAUGUUACGCCGUUCGGAUCUGCACUUCCAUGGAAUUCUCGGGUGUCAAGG` gave a log2 enrichment of -0.119.
`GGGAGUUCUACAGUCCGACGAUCGCAGGAAGUAAAAACAAAUGGAAAUGCUUCGGAUAGUUGCAGGGGUGGGGGUUGCUAAGGAAAGGGUGGGAUGGGAGUGGGUAAAGAGUUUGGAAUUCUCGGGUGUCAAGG` has a log2 enrichment of 1.46.
For `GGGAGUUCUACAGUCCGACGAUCAGUCCUGUGCUACACAUCGUAUGUACCGAAUCGGGAAAAAGGGAAAAAGGGAAAAAGGAAAGUAUUAUGUUACGCCGUUCGGAUCUGCACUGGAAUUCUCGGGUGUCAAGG`, the log2 enrichment was -0.874.
With `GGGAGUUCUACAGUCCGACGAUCGCAGGAAGUAAAAACAAAUGGAAAUGCUUCGGAUAGUGAAAGGGGUGGGGGUUGCUAAGGAAAGGGUGGGAUGGGAGUGGGUAAAGAGUUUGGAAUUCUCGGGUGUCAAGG` the log2 enrichment was 1.81.
`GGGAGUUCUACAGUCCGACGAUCUCCUGUGCUACACAUCGUAUGUACCGAAUCGGGAAAAAAAGGGAAAAAGGGUUUUUGGGAAAGUAUUAUGUUACGCCGUUCGGAUCUGCAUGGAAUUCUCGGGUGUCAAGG` gave a log2 enrichment of -1.56.
With `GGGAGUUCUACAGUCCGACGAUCAACUGGAAGAACAGACCCGUAGGGCUCUGGAACUUGAGCAGGAACGGAAGCGUGCCCAGAGCGAGGCUGAAAAGCUGGCCAAGGAGCGUCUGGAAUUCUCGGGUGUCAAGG` the log2 enrichment was -1.4.
For `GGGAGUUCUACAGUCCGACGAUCUUUCUGCAGCAUUAGAGAAGGCCCAAGAAGAAGCCCGUCAGCAGCAAGAAACAUUAGCCAUUCAAGUAAGCAAUGGAUGAUGAAUUAGAGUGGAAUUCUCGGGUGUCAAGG`, the log2 enrichment was -2.99.

Study 4 — technique: RNA Bind-n-Seq; form: RNA; matrix: in vitro; concentration: not given; reference: input RNA pool; reading: higher = stronger binding
Target: RING finger protein unkempt homolog, zinc fingers 1-6, GST-SBP tag (UNK, Homo sapiens, UniProt Q9C0B0, residues 30-357)
Setting: RNA with constant flanks, human-mouse chimeric sites, ends assumed
Construct (chain): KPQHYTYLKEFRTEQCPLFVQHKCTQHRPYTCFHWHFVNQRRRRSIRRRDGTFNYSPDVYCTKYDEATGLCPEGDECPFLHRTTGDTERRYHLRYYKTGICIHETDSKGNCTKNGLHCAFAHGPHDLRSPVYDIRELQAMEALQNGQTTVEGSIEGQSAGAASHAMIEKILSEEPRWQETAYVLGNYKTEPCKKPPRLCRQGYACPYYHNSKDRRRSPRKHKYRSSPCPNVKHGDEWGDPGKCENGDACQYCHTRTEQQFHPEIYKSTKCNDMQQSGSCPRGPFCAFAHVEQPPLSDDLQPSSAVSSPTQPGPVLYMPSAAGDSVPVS
`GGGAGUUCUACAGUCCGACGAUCCACACACUCUUCUGCGGGACCCUCAUCUUGCAGGCCCGGGCCUAUGUGGGACCGCACGUGCUAGCAGUGGUGACCCGCACAGGGUUCUGCACAGCCAAAGGGGGCCUGGUGAGCUCCAUCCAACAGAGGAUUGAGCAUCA` has a bound/input enrichment of 0.126 ratio.
The bound/input enrichment of `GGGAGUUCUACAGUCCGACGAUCGGGACUGAUUCAUCCCAAGGACAGGCCACCCCAUUUGAUGCCUGGACUGAUGACAGUAUGUUAGGGCCUAGUCAAAAUGUUGAAGCUGAGUCAAUUCAAGAUAAUGCGAGUAUGGAAGAGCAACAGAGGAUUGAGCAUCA` is reported as 0.872 ratio.
`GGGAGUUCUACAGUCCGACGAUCUUACCCGAGAACGAGGAUGAGCUGGAGAGCACCAAUAGGCGCUACACCAAGAGGGACUGCAGCACUUUCCUCAGAACUAGCGAGACGGGCAUCGUGGACCAGGUCAUGGUCACUCUCAACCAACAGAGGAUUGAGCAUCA` gave a bound/input enrichment of 0.147 ratio.
The bound/input enrichment of `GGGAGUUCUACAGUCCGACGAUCAGAAAGCAAAACUUGGAACGAUUUAAGAAAGGAGACGUAAGAUUCUUGAUUUGCACAGAUGUAGCUGCUAGAGGAAUUGAUAUCCAUGGCGUUCCUUAUGUGAUCAACGUCACCCUGCCUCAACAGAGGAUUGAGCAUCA` is reported as 0.209 ratio.
The bound/input enrichment of `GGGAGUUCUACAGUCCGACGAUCGUAGCUGGGACUACAGAAGAAUGCUGAAUUUCAGUCACUUGCUGAUGACUUCUGAUGUCCCAGCAAAUGUUGGCAUUGUUGACUGCUGAGAAGAUACACUCGCAAGGCCACGUCUAAGGUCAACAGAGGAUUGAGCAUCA` is reported as 0.073 ratio.
`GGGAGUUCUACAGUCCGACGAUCCAGUCCCCGUGUCCCAGGGGACAAUGUUGUGAACAAAAACUCAAAGCGGACCCUCUAUUGUAGUUCUUUUUUUAAAUAAUGUGCUAUUAUUGUUUGUCUUUUUUUUUUUUUUUUUAAAGACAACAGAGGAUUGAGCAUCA` gave a bound/input enrichment of 3.18 ratio.
With `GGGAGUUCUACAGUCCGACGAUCGUUGCCAGGUUCCGGUGCCGUUGGGCUCGGUUCUCUCCUGAGCUACGUGUCUCUACGCUCUCAAUCCCGGUUGGGUAAAACAUGGAUCAGGUAAUGCAGUUUGUGGAGCCCAGCCGGCAGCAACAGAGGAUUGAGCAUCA` the bound/input enrichment was 0.068 ratio.

Excerpt of the above (study 4):
`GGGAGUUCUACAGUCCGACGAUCUUACCCGAGAACGAGGAUGAGCUGGAGAGCACCAAUAGGCGCUACACCAAGAGGGACUGCAGCACUUUCCUCAGAACUAGCGAGACGGGCAUCGUGGACCAGGUCAUGGUCACUCUCAACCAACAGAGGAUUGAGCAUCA` gave a bound/input enrichment of 0.147 ratio.
The bound/input enrichment of `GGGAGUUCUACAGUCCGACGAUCAGAAAGCAAAACUUGGAACGAUUUAAGAAAGGAGACGUAAGAUUCUUGAUUUGCACAGAUGUAGCUGCUAGAGGAAUUGAUAUCCAUGGCGUUCCUUAUGUGAUCAACGUCACCCUGCCUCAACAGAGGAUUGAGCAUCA` is reported as 0.209 ratio.
The bound/input enrichment of `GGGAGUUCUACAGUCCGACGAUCGUAGCUGGGACUACAGAAGAAUGCUGAAUUUCAGUCACUUGCUGAUGACUUCUGAUGUCCCAGCAAAUGUUGGCAUUGUUGACUGCUGAGAAGAUACACUCGCAAGGCCACGUCUAAGGUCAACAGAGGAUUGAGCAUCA` is reported as 0.073 ratio.
`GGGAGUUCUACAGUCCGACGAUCCAGUCCCCGUGUCCCAGGGGACAAUGUUGUGAACAAAAACUCAAAGCGGACCCUCUAUUGUAGUUCUUUUUUUAAAUAAUGUGCUAUUAUUGUUUGUCUUUUUUUUUUUUUUUUUAAAGACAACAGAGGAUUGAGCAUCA` gave a bound/input enrichment of 3.18 ratio.
With `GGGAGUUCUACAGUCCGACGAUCGUUGCCAGGUUCCGGUGCCGUUGGGCUCGGUUCUCUCCUGAGCUACGUGUCUCUACGCUCUCAAUCCCGGUUGGGUAAAACAUGGAUCAGGUAAUGCAGUUUGUGGAGCCCAGCCGGCAGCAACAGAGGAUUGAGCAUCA` the bound/input enrichment was 0.068 ratio.
